Experimental data of several laboratories.
Numbered parts are unrelated; each lists some results of a single study.

Block 1
Target: Histone acetyltransferase KAT6A, both winged helices, GST fusion (KAT6A, Homo sapiens, UniProt Q92794, residues 1-181)
Technique: protein binding microarray
Molecule type: double-stranded DNA, one strand shown
Medium: in vitro
Tested at: not given
Setting: 8-mer, flanks averaged, mean of 2 arrays, mostly near background
Relative to: not given
Reading: higher = stronger binding
Quantity: E-score
Construct (chain): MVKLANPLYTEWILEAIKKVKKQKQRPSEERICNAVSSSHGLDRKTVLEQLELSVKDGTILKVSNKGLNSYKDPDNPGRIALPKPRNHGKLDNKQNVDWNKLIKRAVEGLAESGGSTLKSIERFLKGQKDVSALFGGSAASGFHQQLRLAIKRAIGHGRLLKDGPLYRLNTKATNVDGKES
GAGTCCGC: 0.177
GCGTGGCA: 0.044
AGAGATTA: -0.126
AGTGCCCA: -0.141
AGCCTTGG: -0.251
GAATAATC: -0.104
ACGGGAGC: 0.138
GACTCAGC: 0.0126

Block 2
Target: Replicase polyprotein 1ab, polymerase (rep, Severe acute respiratory syndrome coronavirus 2, UniProt P0DTD1)
Read-out: enzyme activity
Action: inhibitor
Tested at: 20 µM
Quantity: inhibition
CC(C)C[C@@H](NC(=O)[C@H](Cc1ccccc1)NC(=O)CNC(=O)[C@@H](C)NC(=O)[C@@H](N)Cc1ccc(O)cc1)C(=O)O: -1.27%
C=CCOc1ccc(CC(=O)O)cc1Cl: -1.99%
CN1CCC[C@@H]1Cc1c[nH]c2ccc(CCS(=O)(=O)c3ccccc3)cc12: 3.84%
C#CCN1C(C)=C(C(=O)OC)C(c2cccc([N+](=O)[O-])c2)C(C(=O)OCC)=C1C (stereo not drawn): -0.79%
Cc1ccnc(NS(=O)(=O)c2ccc(N)cc2)n1: 27%
CC1(S(=O)(=O)O)CC(=O)c2ccccc2C1=O (stereo not drawn): 0.1%
NC(N)=NCCC[C@@H](N)C(=O)N[C@@H](CCCN=C(N)N)C(=O)N1CCC[C@H]1C(=O)N1C[C@H](O)C[C@H]1C(=O)NCC(=O)N[C@@H](Cc1cccs1)C(=O)N[C@@H](CO)C(=O)N1Cc2ccccc2C[C@@H]1C(=O)N1[C@H](C(=O)N[C@@H](CCCN=C(N)N)C(=O)O)C[C@@H]2CCCC[C@@H]21: 5.09%
CCOC(=O)[C@@H](N)CCC(=O)N[C@@H](CSCc1ccccc1)C(=O)N[C@@H](C(=O)OCC)c1ccccc1: -0.84%
CCN(CC)CCNC(=O)c1cc(S(C)(=O)=O)ccc1OC: 2.93%
CCn1c2ccccc2c2cc(CNCc3ccccc3OC)ccc21: 2.5%
NC(=O)Nc1sc(-c2ccc(F)cc2)cc1C(N)=O: 5.36%
CC(C)SC(=N)N: 3.95%
OCCCCO: -7.83%
C[C@@H](CN1CCC(Cc2ccccc2)CC1)[C@@H](O)c1ccc(O)cc1: -2.95%
FC(F)(F)c1cc(CO[C@H]2CCCN[C@H]2c2ccccc2)cc(C(F)(F)F)c1: -4.03%
Cc1noc(-c2ccc(-c3ccc(CC(=O)O)cc3)cc2)c1NC(=O)O[C@H](C)c1ccccc1: -1.81%
CC(C)(C)c1ccc(S(=O)(=O)/C=C/C#N)cc1: 0.69%
COc1ccc2nc3ccc(Cl)cc3c(SCCCN)c2c1: -6%
O=C(O)c1c(Sc2ccccc2)c2cc(Cl)ccc2n1Cc1ccc(Cl)cc1: 85.7%
Cc1[nH]cnc1CN1CCc2c(c3ccccc3n2C)C1=O: 1%
CCN1CCCC(OC(=O)C(c2ccccc2)c2ccccc2)C1 (stereo not drawn): -5.54%
CN(C)c1cc(NC(=O)CNC(C)(C)C)c(O)c2c1C[C@H]1C[C@H]3[C@H](N(C)C)C(O)=C(C(N)=O)C(=O)[C@@]3(O)C(O)=C1C2=O: 31.4%
c1cc(Cc2cnc[nH]2)ccn1: 1.43%
CCOC(=O)C1=C(C)NC(C)=C(C(=O)OCC)C1c1ccccc1/C=C/C(=O)OC(C)(C)C: 9.11%
O=C1c2ccccc2-n2c1nc1ccccc1c2=O: -0.77%

Block 3
Cell line: HEK-293T/ACE2
Read-out: pseudovirus infection
Organism: VSV pseudotyped with SARS-CoV-2 spike
Tested at: 10 µM
Time: 16 h
Relative to: vehicle-treated
Quantity: GFP-positive cells
CCCCC[C@H](O)/C=C/[C@H]1[C@H](O)CC(=O)[C@@H]1CCCCCCC(=O)O: 68.7%
CN(C)CC(c1ccc(O)cc1)C1(O)CCCCC1 (stereo not drawn): 66.4%
CCCCC1=NC2(CCCC2)C(=O)N1Cc1ccc(-c2ccccc2-c2nnn[nH]2)cc1: 62.5%
CC(=O)O[C@H]1C[C@@H]2CC[C@@H]3[C@H](CC[C@@]4(C)[C@H]3C[C@H]([N+]3(C)CCCCC3)[C@@H]4OC(C)=O)[C@@]2(C)C[C@@H]1N1CCCCC1: 72.8%

Block 4
Target: Sal-like protein 4, full length isoform B (SALL4, Homo sapiens, UniProt Q9UJQ4-2, residues 1-616)
Technique: universal PBM
Molecule type: double-stranded DNA, one strand shown
Medium: in vitro
Tested at: not given
Setting: 8-mer, flanks averaged, mean of replicates
Reading: higher = stronger binding
Quantity: E-score
Target sequence (chain): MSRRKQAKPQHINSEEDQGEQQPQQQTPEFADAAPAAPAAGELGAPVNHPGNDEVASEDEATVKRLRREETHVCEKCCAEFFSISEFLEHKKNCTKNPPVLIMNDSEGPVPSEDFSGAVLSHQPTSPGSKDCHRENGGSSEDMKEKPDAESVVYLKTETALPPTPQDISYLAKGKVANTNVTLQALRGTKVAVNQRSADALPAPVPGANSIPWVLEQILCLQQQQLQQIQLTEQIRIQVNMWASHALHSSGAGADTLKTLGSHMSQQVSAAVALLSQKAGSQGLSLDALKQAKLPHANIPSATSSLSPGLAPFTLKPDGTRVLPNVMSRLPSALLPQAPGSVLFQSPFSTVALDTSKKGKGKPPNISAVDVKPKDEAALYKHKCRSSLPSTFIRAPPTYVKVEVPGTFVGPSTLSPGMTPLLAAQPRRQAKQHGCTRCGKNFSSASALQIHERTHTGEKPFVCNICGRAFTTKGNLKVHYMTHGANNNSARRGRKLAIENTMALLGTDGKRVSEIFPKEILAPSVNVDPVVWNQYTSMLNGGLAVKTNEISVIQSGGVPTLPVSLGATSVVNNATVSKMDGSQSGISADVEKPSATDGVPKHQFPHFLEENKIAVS
GTCTGGCA: -0.184
ACCCTTGA: -0.0898
CGTAAACC: -0.108
CTAGTAAC: 0.0458
CAGAGCCC: -0.218
CGTGCTTC: -0.289
TCGTTGCA: 0.0314
AAAGCATC: 0.0165

Block 5
Target: Fragile X messenger ribonucleoprotein 1, C-terminal low-complexity region (Fmr1, Mus musculus, UniProt P35922)
Technique: RNA Bind-n-Seq
Molecule type: RNA
Medium: in vitro
Tested at: 200 nM
Setting: whole 134-nt RNA, ends assumed
With: 150 mM LiCl
Relative to: input library
Reading: higher = stronger binding
Quantity: log2 enrichment
Library: 7-deaza-guanosine replaces G
Shared flanks, not repeated: GGGAGUUCUACAGUCCGACGAUC … UGGAAUUCUCGGGUGUCAAGG
GCAGGAAGUAAAAACAAAUGGAAAUGCUUCGGAUAGCGGCAGGGGUGGGGGUUGCUAAGGAAAGGGUGGGAUGGGAGUGGGUAAAGAGUU: 1.46
UCCUGUGCUACACAUCGUAUGUACCGAAUCGGGGUUUUUUUGGGGUGGGGAAAAAGGGGAAAGUAUUAUGUUACGCCGUUCGGAUCUGCA: -1.63
UUUCUUCCCCCACAGUUCAUCCAUGAGCUCGGAUUUCCCACAUUACAACUUCAGGAUGCCUAAUAUUGGAUUCCAGAAUCUGCCUCUCAA: 1.89
CUCAAGUCCUGUGCUACACAUCGUAUGUACCGAAUCGGAAGGGGAAGGAAGGGAAAGUAUUAUGUUACGCCGUUCGGAUCUGCACUUCCA: -0.0528
UCCUGUGCUACACAUCGUAUGUACCGAAUCGGGGAAAAAAAGGGGUUUUUGGGGUGGGGAAAGUAUUAUGUUACGCCGUUCGGAUCUGCA: -0.298
UGGCCCUGGUGGCAUUCGGGGAGGAAGAGGUGGCCUCAUGGAUCGUGGUGGUCCCGGUGGAAUGUUCAGAGGUGGCCGUGGUGGAGACAG: -0.628
AGUCCUGUGCUACACAUCGUAUGUACCGAAUCGGGUUUUUGGGUUUUUGGGUUUGGGAAAGUAUUAUGUUACGCCGUUCGGAUCUGCACU: -1.8
CUCAAGUCCUGUGCUACACAUCGUAUGUACCGAAUCGGUGGUUUUUGGUUUGGAAAGUAUUAUGUUACGCCGUUCGGAUCUGCACUUCCA: -0.228

Block 6
Target: Replicase polyprotein 1ab, main protease (rep, Severe acute respiratory syndrome coronavirus 2, UniProt P0DTD1)
Read-out: enzyme activity
Action: inhibitor
Tested at: 20 µM
Quantity: inhibition
NC[C@@H]1O[C@H](C23CC4CC(CC(C4)C2)C3)Cc2c1ccc(O)c2O: -14%
COc1ccc2[nH]c(S)nc2c1: 15.9%
c1cc[n+]2c(c1)[S][Zn]1([O]2)[O][n+]2ccccc2[S]1: 99.3%
O=C(O)[C@@H](S)[C@@H](S)C(=O)O: -8.73%

Excerpt of the above (block 1):
ACGGGAGC: 0.138
GACTCAGC: 0.0126
AGAGATTA: -0.126
GAGTCCGC: 0.177
GCGTGGCA: 0.044
